Published values pooled from the literature.
A part holds a random share of what one study measured. Values joined by “and” are separate records of one study, mostly repeats; a detail may differ.
Chain of UniProt Q8S8P5 (346-449, looked up): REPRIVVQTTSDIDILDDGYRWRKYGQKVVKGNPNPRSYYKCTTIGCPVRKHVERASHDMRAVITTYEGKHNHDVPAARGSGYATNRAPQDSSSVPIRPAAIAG
Chain of UniProt Q8VWQ5 (99-173, looked up): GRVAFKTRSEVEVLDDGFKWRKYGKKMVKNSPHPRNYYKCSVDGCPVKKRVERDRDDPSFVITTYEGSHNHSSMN
Chain of UniProt Q8S8P5 (169-264, looked up): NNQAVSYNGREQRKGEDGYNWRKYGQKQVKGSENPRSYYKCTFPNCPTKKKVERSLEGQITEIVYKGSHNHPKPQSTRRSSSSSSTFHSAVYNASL

Sample 1
Target: Sal-like protein 4, full length isoform B (SALL4, Homo sapiens, UniProt Q9UJQ4-2, residues 1-616)
Technique: universal PBM
Molecule type: double-stranded DNA, one strand shown
Sample: in vitro
Concentration: not given
Setting: 8-mer, flanks averaged, mean of replicates
Direction: higher = stronger binding
Measurement: E-score
GGATGCCA: -0.101
CCTCATTA: 0.249
CAAGTGCG: -0.0966
CGTACCGC: -0.184
GACTTTAA: 0.179
GAATAGTC: -0.0427
CTTCAAAC: -0.107
CCTAATCC: -0.0635

Sample 2
Target: TAR DNA-binding protein 43, full length, His tag (TARDBP, Homo sapiens, UniProt Q13148, residues 1-414)
Technique: RNA Bind-n-Seq
Molecule type: RNA
Sample: in vitro
Concentration: 20 nM
Setting: 6-mer, flanks averaged, single round
With: 150 mM LiCl
Relative to: input library
Direction: higher = stronger binding
Measurement: 6-mer enrichment (R)
GUAUAC: 0.897
AGCUCA: 0.839
UGAUAG: 0.99
UAACCU: 0.88
UAUGAA: 1.08
UAAUGU: 1.1
AGUCAA: 0.816
CGCGGG: 1.08

Sample 3
Target: PABPC1L2, full length, GST fusion (mouse, UniProt A0ABA7IW68)
Technique: RNAcompete
Molecule type: RNA
Sample: in vitro
Concentration: 20 nM
Setting: 7-mer, probes averaged, single round
Relative to: mean of 7-mers
Direction: higher = stronger binding
Measurement: 7-mer Z-score
Residues (chain): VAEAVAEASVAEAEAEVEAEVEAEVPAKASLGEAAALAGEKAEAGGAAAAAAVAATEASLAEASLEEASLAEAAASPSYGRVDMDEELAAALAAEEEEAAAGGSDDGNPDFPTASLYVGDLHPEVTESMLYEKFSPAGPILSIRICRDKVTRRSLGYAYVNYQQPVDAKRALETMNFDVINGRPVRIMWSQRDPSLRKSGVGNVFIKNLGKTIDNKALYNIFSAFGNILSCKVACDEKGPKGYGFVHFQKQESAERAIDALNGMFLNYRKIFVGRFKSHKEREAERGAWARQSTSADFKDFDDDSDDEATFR
GCCUCAG: -0.351
UUACGCU: -0.353
GCAGCGC: -0.0536
AGAGAAA: 1.25
AUAACCA: 0.0207
UUAUUCC: -0.34
UCGCGCG: -0.338
UCGACAC: -0.0935

Sample 4
Target: Replicase polyprotein 1ab, polymerase (rep, Severe acute respiratory syndrome coronavirus 2, UniProt P0DTD1)
Effect on: enzyme activity
Action: inhibitor
Concentration: 20 µM
Measurement: inhibition
O=C(CN1CCN(Cc2ccc3c(c2)OCO3)CC1)N1c2ccccc2Sc2ccccc21: 0.82%
Cc1nnc2ccc(-c3cccc(C(F)(F)F)c3)nn12: -3.19%
NC(N)=NCCC(=O)O: -1.01%
Cc1ncc(CO)c(C=O)c1O: 2.87%
Nc1c2ccccc2nc2ccccc12: 4.6%
CC[C@@H](C)Nc1cc(C(=O)N[C@H]2C[C@H]3CC[C@@H](C2)N3c2ccc(C(=O)C3CC3)cn2)c(C)cc1C(N)=O: -15.2%
NC[C@H](CC(=O)O)c1ccc(Cl)cc1: -3.22%
COCCOCCOc1ccc(C2=N[C@@](C)(C(=O)O)CS2)c(O)c1: -9.8%
CCOC(=O)c1cc(C#N)c(N2CCC(C(=O)NS(=O)(=O)Cc3ccccc3)CC2)nc1C: -0.11%
NCCc1ccc(O)c(O)c1: 20.6%
CCn1cc(C(=O)O)c(=O)c2ccc(C)nc21: 10.8%
N=C(N)NC(=O)Cc1c(Cl)cccc1Cl: -2.26%
COc1cccc(N(C)C(=S)Oc2ccc3c(c2)CCCC3)n1: -3.35%
C#CCN(C)Cc1ccccc1: 13%
CC(=O)N(CC(O)CO)c1c(I)c(C(=O)NCC(O)CO)c(I)c(C(=O)NCC(O)CO)c1I (mixture of isomers): 8.46%
CN1CCC(CNc2ccc3ncc(-c4cccc(OC(F)(F)F)c4)n3n2)CC1: -8.61%
CS(=O)(=O)Nc1cc2occ(NC=O)c(=O)c2cc1Oc1ccccc1: -5.13%
O=[N+]([O-])c1cncn1CCN1CCOCC1: -2.82%
O=C(O)CCC(=O)O: 1.58%
CNC(=O)c1c(C)oc2cc(Oc3ncnc4cc(OC)c(OC)cc34)ccc12: -6.33%
N#Cc1cc(-c2n[nH]c(-c3ccncc3)n2)ccn1: -0.9%
O=Nc1c(-c2c(O)[nH]c3cc(Br)ccc23)[nH]c2ccccc12: 13.2%
C/C(=C\CNc1ncnc2nc[nH]c12)CO: 3.55%
CC(C)[C@@H](C)/C=C/[C@@H](C)[C@H]1CC[C@H]2/C(=C/C=C3\C[C@@H](O)CC[C@@H]3C)CCC[C@]12C: 2.55%
C[C@@H]1C[C@H]2[C@@H]3C[C@H](F)C4=CC(=O)C=C[C@]4(C)[C@@]3(F)[C@@H](O)C[C@]2(C)[C@@]1(O)C(=O)COC(=O)C(C)(C)C: 19.7%

Sample 5
Target: Replicase polyprotein 1ab, main protease (rep, Severe acute respiratory syndrome coronavirus 2, UniProt P0DTD1)
Effect on: enzyme activity
Action: inhibitor
Concentration: 20 µM
Setting: hit confirmation, with DTT
Measurement: inhibition
O=c1cc(-c2ccccc2)oc2cc(O)c(O)c(O)c12: -20.1% and 95.4%
COc1ncc(-c2ccc3nccc(-c4ccnnc4)c3c2)cc1NS(=O)(=O)c1ccc(F)cc1F: 37.6%
CCC[C@H](NC(=O)/C(C#N)=C/c1cccc(Br)n1)c1ccccc1: -6.6%
CCCCCCCCCCCCCCCCCC[S+](CCC)c1ccccc1C(=O)OCC (stereo not drawn): 89.9%

Further values, each from its own experiment
AAAAAAGACACTCTAATTCCGTAGGCAAAA
relative absorbance (Probable WRKY transcription factor 33, N-terminal DNA-binding domain (WRKY33, Arabidopsis thaliana, UniProt Q8S8P5, residues 169-264); DNA-protein interaction ELISA; double-stranded DNA, one strand shown, in vitro, bacterial lysate; not given, whole dsDNA probe, crude lysate protein; relative to: highest signal in screen, higher = stronger binding): 23.1 % of maximum

Cc1cccc(Nc2ccccc2C(=O)O)c1C
GFP-positive cells (HEK-293T; pseudovirus infection, FDA-approved drug library screen; VSV pseudotyped with SARS-CoV-2 spike; 10 µM, 16 h; relative to: vehicle-treated): 60.7%

AAAAAAATCCGATCGATGCATATATAAAA
relative absorbance (Probable WRKY transcription factor 33, C-terminal DNA-binding domain (WRKY33, Arabidopsis thaliana, UniProt Q8S8P5, residues 346-449); DNA-protein interaction ELISA; double-stranded DNA, one strand shown, in vitro, bacterial lysate; not given, whole dsDNA probe, crude lysate protein; relative to: highest signal in screen, higher = stronger binding): 37.8 % of maximum

AAAAAATTCCGCGTGTATGTGTACGTAAAA
relative absorbance (Probable WRKY transcription factor 50, DNA-binding domain (WRKY50, Arabidopsis thaliana, UniProt Q8VWQ5, residues 99-173); DNA-protein interaction ELISA; double-stranded DNA, one strand shown, in vitro, bacterial lysate; not given, whole dsDNA probe, crude lysate protein; relative to: highest signal in screen, higher = stronger binding): 72.7 % of maximum

Repeated from above (further values, each from its own experiment):
AAAAAAGACACTCTAATTCCGTAGGCAAAA
relative absorbance (Probable WRKY transcription factor 33, N-terminal DNA-binding domain (WRKY33, Arabidopsis thaliana, UniProt Q8S8P5, residues 169-264); DNA-protein interaction ELISA; double-stranded DNA, one strand shown, in vitro, bacterial lysate; not given, whole dsDNA probe, crude lysate protein; relative to: highest signal in screen, higher = stronger binding): 23.1 % of maximum

Cc1cccc(Nc2ccccc2C(=O)O)c1C
GFP-positive cells (HEK-293T; pseudovirus infection, FDA-approved drug library screen; VSV pseudotyped with SARS-CoV-2 spike; 10 µM, 16 h; relative to: vehicle-treated): 60.7%

AAAAAAATCCGATCGATGCATATATAAAA
relative absorbance (Probable WRKY transcription factor 33, C-terminal DNA-binding domain (WRKY33, Arabidopsis thaliana, UniProt Q8S8P5, residues 346-449); DNA-protein interaction ELISA; double-stranded DNA, one strand shown, in vitro, bacterial lysate; not given, whole dsDNA probe, crude lysate protein; relative to: highest signal in screen, higher = stronger binding): 37.8 % of maximum

AAAAAATTCCGCGTGTATGTGTACGTAAAA
relative absorbance (Probable WRKY transcription factor 50, DNA-binding domain (WRKY50, Arabidopsis thaliana, UniProt Q8VWQ5, residues 99-173); DNA-protein interaction ELISA; double-stranded DNA, one strand shown, in vitro, bacterial lysate; not given, whole dsDNA probe, crude lysate protein; relative to: highest signal in screen, higher = stronger binding): 72.7 % of maximum
